Assay results pooled from the literature.
Target: Atypical kinase COQ8B, mitochondrial (COQ8B, Homo sapiens, UniProt Q96D53)

For `Cc1ccc(-c2c(/C=C(\C#N)C(=O)NC(C)C)n(CCCO)c3ncnc(N)c23)cc1`, the remaining binding was 94% (cell-free assay, competition with immobilised ligand; 1 µM).
For `COc1cc(Nc2nc(C)cc(-c3cnn4nc(OC)ccc34)n2)cc(C(F)(F)F)c1`, “percent of control binding” read 79% (kinase binding; 1 µM, ADCK4).
`CCN1CCN(Cc2ccc(C(=O)Nc3ccc(C)c(NCc4cnc5[nH]ccc5c4OC)c3)cc2C(F)(F)F)CC1` has a remaining binding of 100% (binding, competition with immobilised ligand; 1 µM).
For `Nc1ncc2c(n1)-c1c([nH]c3ccc(C4=CCOCC4)cc13)CCC2`, the remaining binding was 67% (binding, competition with immobilised ligand; 1 µM).
With `C=CC(=O)N1CCc2ccc(-n3c(=O)ccc4cnc5ccc(-c6cnn(C)c6)cc5c43)cc21` the remaining binding was 100% (KINOMEscan; 1 µM; baseline: DMSO control).
The remaining binding of `CNC1C[S+]2CC[S+]3CC[S+](C1)[Ru-4]321([N]=C=S)[n]2c3ccc(OC)cc3c3c4c(c5cc(F)c[n+]1c5c32)C(=O)NC4=O` (stereo not drawn) is reported as 96% (KinomeScan; 0.1 µM; baseline: untreated).
With `COc1c(Cl)cccc1Nc1c(-c2ccncc2C#C[C@@]2(C)CCCN2C(=O)/C=C/CN(C)C)[nH]c2c1C(=O)NCC2` the remaining binding was 91% (cell-free assay, competition with immobilised ligand; 3 µM).
The remaining binding of `CNC(=O)C1CCN(c2cc(C)c(F)cc2NC(=O)c2ccc(-c3cc(O)ccc3C)c(C)c2)CC1` is reported as 85% (binding, competition with immobilised ligand; 1 µM).
`Cc1cnc2nc1Nc1cccc(c1)COC/C=C/COCc1cc(ccc1OCCN1CCOCC1)N2` gave a remaining binding of 85% (binding; 0.1 µM).
For `C=CC(=O)N1CCCC(n2c(=O)c3ncccc3n(Cc3ccc(Oc4ccccc4)cc3)c2=O)C1` (stereo not drawn), the remaining binding was 67% (cell-free assay, competition with immobilised ligand; 1 µM).
`COc1cc(Nc2nccc(-c3cnn4nc(OC)ccc34)n2)cc(C(F)(F)F)c1` has a remaining binding of 82% (binding, competition with immobilised ligand; 1 µM).
For `CC(C)=CC1OC(C)(C)C2C=C3C(=O)C(Cl)=CC(O)C3C3C(O)C4OC4C(=O)C132` (stereo not drawn), the remaining binding was 89% (cell-free assay, competition with immobilised ligand; 10 µM).

Excerpt of the above:
For `C=CC(=O)N1CCCC(n2c(=O)c3ncccc3n(Cc3ccc(Oc4ccccc4)cc3)c2=O)C1` (stereo not drawn), the remaining binding was 67% (cell-free assay, competition with immobilised ligand; 1 µM).
